Experimental data of several laboratories.
Protocols differ between the studies behind these lines.
Technique: steady-state kinetics
B1: protein (Phaseolus vulgaris, UniProt V7CJ62); chain MSAYKDQDPRLHGIKTKIRVVPNFPKSGIMFQDITTLLLDPKAFKDTIDLFVERYKGKNISVVAGIEARGFIFGPPIALAIGAKFVPLRKPKKLPGKVISQEYILEYGRDCIEMHVGAVEPGERALVVDDLIATGGTLCAAMDLLERVGAEVVECACVIELPELKGRERLNGKPLYVLVEYMEI
B2: AKR1C1 (Homo sapiens, UniProt Q04828); chain MDSKYQCVKLNDGHFMPVLGFGTYAPAEVPKSKALEATKLAIEAGFRHIDSAHLYNNEEQVGLAIRSKIADGSVKREDIFYTSKLWCNSHRPELVRPALERSLKNLQLDYVDLYLIHFPVSVKPGEEVIPKDENGKILFDTVDLCATWEAVEKCKDAGLAKSIGVSNFNRRQLEMILNKPGLKYKPVCNQVECHPYFNQRKLLDFCKSKDIVLVAYSALGSHREEPWVDPNSPVLLEDPVLCALAKKHKRTPALIALRYQLQRGVVVLAKSYNEQRIRQNVQVFEFQLTSEEMKAIDGLNRNVRYLTLDIFAGPPNYPFSDEY
B3: GTPBP3 N259A (Homo sapiens, UniProt Q969Y2); chain TRRSSGAPAPGSGATIFALSSGQGRCGIAVIRTSGPASGHALRILTAPRDLPLARHASLRLLSDPRSGEPLDRALVLWFPGPQSFTGEDCVEFHVHGGPAVVSGVLQALGSVPGLRPAEAGEFTRRAFANGKLNLTEVEGLADLIHAETEAQRRQALRQLDGELGHLCRGWAETLTKALAHVEAYIDFGEDDNLEEGVLEQADIEVRALQVALGAHLRDARRGQRLRSGVHVVVTGPPAAGKSSLVNLLSRKPVSIVSPEPGTTRDVLETPVDLAGFPVLLSDTAGLREGVGPVEQEGVRRARERLEQADLILAMLDASDLASPSSCNFLATVVASVGAQSPSDSSQRLLLVLNKSDLLSPEGPGPGPDLPPHLLLSCLTGEGLDGLLEALRKELAAVCGDPSTDPPLLTRARHQHHLQGCLDALGHYKQSKDLALAAEALRVARGHLTRLTGGGGTEEILDIIFQDFCVGK
B4: ribK (UniProt H2C8H2); chain MSEECLIAKIVYLSNKGSEVTQQTLAEELKMSQQTISRKLRELEERSLIKRSLSKEGEVIRVTENGEKLLEECLSVLKTAIMTSHLLIIRGRVISGLGEGRLFLTMPYYVESFKKFLGFEPYPGTLNLAIYDRESLENRLALDTSKSINIPEYREQNRVLGGVRAFPASINGLRPAAVVFPLRSVHPKSIIEVISPYHLRKELNLNDGDEVTVEAYA
B5: sacB Y439F (Priestia megaterium, UniProt D5DC07); chain KGNDSKDFNNSYGISHITRDNMVKIPQQQNSDQFKVPAFDESTIKNIASAKGKNASGNTIDLDVWDSWPLQNADGTVATYHGYQIVFALAGDPKDSNDTSVYLFYKKAGDKSIDSWKNAGRVFKDSDKFVPNDPHLKNQTQEWSGSGTLTKDGKVRLFYTDYSGKQYGKQTLTTAQVNMSQPNDNTLKVDGVEDYKSIFDGDGKIYQTVQQFIDEGGYDTGDNHTLRDPHYIEDNGHKYLVFEANTGTEDGYQGEDSLYNRAYYGGNNPFFQSEKKKLLEGSNKEKASLANGALGIIELNDDYTLKKVMKPLITSNTVTDEIERANIFKKDGKWYLFTDSRGSKMTIDGIGQDDVYMLGYVSNTLTGKYKPLNDTGLVLHMDLDPNDKTFTYSHFAVPQTKGDNVVITSFMTNRGFYEDNHSTFAPSFLVNIDGSKTSVVKDRVLEQGQLTVDED
B6: enzyme E323G (UniProt H9KVH3); chain ADASQIVSEMGAGWNLGNQLEAAVNGTPNETAWGNPTVTPELIKKVKAAGFKSIRIPVSYLNNIGSAPNYTINAAWLNRIQQVVDYAYNEGLYVIINIHGDGYNSVQGGWLLVNGGNQTAIKEKYKKVWQQIATKFSNYNDRLIFESMNEVFDGNYGNPNSAYYTNLNAYNQIFVDTVRQTGGNNNARWLLVPGWNTNIDYTVGNYGFTLPTDNYRSSAIPSSQKRIMISAHYYSPWDFAGEENGNITQWGATSTNPAKKSTWGQEDYLESQFKSMYDKFVTQGYPVVIGGFGSIDKTSYDSSNNVYRAAYAKAVTAKAKKYKMVPVYWDNGHNGQHGFALFNRSNNTVTQQNIINAIMQGMQ
B7: aromatic amino acid decarboxylase (Bacillus atrophaeus, UniProt I0DFJ0); chain MSENLQLSAEEMRQLGYQAVDLIIDHMNHLKSKPVSETIDSDILRNKLTESIPENGSDPKELLHFLNRNVFNQITHVDHPHFLAFVPGPNNYVGVVADFLASGFNVFPTAWIAGAGAEQIELTTINWLKSMLGFPDSAEGLFVSGGSMANLTALTVARQAKLNNDIENAVVYFSDQTHFSVDRALKVLGFKHHQICRIETDEHLRISVSALKKQIKEDRTKGKKPFCVIANAGTTNCGAVDSLNELADLCNDEDVWLHADGSYGAPAILSEKGSAMLQGIHRADSLTLDPHKWLFQPYDVGCVLIRNSQYLSKTFRMMPEYIKDSETNVEGEINFGECGIELSRRFRALKVWLSFKVFGVAAFRQAIDHGIMLAEQVEAFLGKAKDWEVVTPAQLGIVTFRYIPSELASTDTINEINKKLVKEITHRGFAMLSTTELKEKVVIRLCSINPRTTTEEMLQIMMKIKALAEEVSISYPCVAE
Chain of UniProt P07914 (whole entry, looked up): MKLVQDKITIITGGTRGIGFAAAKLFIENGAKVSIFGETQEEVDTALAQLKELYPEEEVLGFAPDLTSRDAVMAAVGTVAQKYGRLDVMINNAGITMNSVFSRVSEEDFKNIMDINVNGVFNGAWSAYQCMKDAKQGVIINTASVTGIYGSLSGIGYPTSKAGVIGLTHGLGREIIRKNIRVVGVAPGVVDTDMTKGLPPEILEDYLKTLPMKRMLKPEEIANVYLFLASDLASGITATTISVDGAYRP
Chain of UniProt Q12043 (whole entry, looked up): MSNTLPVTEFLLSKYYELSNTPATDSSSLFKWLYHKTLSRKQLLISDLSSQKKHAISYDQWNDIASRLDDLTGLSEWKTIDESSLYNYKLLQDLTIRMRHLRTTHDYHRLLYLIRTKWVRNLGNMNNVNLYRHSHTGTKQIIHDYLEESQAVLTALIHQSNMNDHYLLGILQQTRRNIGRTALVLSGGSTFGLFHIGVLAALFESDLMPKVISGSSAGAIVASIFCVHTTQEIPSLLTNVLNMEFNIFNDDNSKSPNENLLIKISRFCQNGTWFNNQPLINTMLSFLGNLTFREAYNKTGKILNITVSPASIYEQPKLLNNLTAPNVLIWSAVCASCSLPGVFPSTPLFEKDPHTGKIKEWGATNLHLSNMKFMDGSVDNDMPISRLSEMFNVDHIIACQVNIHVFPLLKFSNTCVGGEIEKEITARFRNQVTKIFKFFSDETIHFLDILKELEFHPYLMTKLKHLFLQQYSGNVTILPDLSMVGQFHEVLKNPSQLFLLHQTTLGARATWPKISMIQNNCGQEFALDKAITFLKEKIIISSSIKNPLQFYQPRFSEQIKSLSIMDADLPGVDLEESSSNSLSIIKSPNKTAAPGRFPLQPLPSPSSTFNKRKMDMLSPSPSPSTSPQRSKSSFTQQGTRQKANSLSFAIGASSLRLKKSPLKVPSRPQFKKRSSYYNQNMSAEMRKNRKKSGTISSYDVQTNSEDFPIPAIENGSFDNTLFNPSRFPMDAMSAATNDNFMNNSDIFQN
Chain of UniProt P0AAI3 (whole entry, looked up): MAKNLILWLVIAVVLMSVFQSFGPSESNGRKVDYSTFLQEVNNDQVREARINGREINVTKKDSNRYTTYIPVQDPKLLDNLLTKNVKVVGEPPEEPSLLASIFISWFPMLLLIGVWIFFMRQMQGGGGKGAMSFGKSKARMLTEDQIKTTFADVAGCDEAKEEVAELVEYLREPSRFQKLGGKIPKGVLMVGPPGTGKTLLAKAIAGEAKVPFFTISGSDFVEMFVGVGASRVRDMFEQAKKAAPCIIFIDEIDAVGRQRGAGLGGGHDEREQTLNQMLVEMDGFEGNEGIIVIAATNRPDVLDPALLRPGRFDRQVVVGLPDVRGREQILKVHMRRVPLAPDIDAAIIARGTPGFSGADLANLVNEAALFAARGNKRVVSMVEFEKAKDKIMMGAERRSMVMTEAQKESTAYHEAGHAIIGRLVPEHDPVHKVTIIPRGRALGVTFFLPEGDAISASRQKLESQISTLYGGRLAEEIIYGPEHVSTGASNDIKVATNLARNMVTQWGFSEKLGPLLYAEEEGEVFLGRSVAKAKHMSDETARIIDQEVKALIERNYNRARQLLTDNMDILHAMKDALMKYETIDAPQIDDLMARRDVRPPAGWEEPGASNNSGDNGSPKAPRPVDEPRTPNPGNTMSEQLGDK
Chain of UniProt O81030 (whole entry, looked up): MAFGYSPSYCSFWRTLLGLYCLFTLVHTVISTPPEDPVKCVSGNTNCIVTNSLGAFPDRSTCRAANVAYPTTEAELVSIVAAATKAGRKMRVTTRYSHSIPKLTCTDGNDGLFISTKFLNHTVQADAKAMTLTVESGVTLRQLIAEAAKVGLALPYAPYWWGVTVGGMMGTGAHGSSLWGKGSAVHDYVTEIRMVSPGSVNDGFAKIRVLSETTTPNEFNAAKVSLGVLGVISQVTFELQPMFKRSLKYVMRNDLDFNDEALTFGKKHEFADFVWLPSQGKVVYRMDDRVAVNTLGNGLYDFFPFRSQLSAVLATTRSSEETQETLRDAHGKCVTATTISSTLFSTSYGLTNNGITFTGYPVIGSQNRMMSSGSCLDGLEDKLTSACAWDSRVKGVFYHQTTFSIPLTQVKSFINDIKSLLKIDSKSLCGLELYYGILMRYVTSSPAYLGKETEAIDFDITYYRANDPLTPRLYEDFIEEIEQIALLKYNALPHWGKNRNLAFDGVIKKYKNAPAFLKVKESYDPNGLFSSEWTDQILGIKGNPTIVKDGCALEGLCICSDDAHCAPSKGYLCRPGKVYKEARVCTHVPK

For `B1 (protein)`, the Km was 230 µM (O=P(O)(O)OC[C@H]1O[C@H](OP(=O)(O)OP(=O)(O)O)[C@H](O)[C@@H]1O; pH 7.5, 37 °C, MgCl2 5 mM, added: adenine 1 mM).
`B2 (AKR1C1)` gave a Km of 35.3 µM (C=C1C[C@@H]2[C@H](CC[C@]3(C)C(=O)CC[C@@H]23)[C@@]2(C)C=CC(=O)C=C12; 37 °C).
The Km of `ftsH (Escherichia coli, UniProt P0AAI3)` is reported as 400 µM (Nc1ncnc2c1ncn2[C@@H]1O[C@H](COP(=O)(O)OP(=O)(O)OP(=O)(O)O)[C@@H](O)[C@H]1O; pH 7.8, 37 °C, added: Triton X-100 micelles).
With `GulLO5 (Arabidopsis thaliana, UniProt O81030)` the Km was 33800 µM (O=C1O[C@H]([C@@H](O)CO)[C@H](O)[C@@H]1O; pH 8, 25 °C, apparent, added: cytochrome c 121 µM, FAD 100 µM).
With `B3 (GTPBP3 N259A)` the Km was 11.4 µM (Nc1nc2c(ncn2[C@@H]2O[C@H](COP(=O)(O)OP(=O)(O)OP(=O)(O)O)[C@@H](O)[C@H]2O)c(=O)[nH]1; pH 8, 37 °C, KCl 300 mM).
With `protein (Actinidia deliciosa, UniProt C7SHN9)` the Km was 2.8 µM (CC(C)=CCC/C(C)=C/COP(=O)(O)OP(=O)(O)O; pH 7.5, added: GPP 1-100 µM).
The Km of `B4 (ribK)` is reported as 90 µM (Cc1cc2nc3c(=O)[nH]c(=O)nc-3n(C[C@H](O)[C@H](O)[C@H](O)CO)c2cc1C; pH 8, 60 °C, apparent).
The Km of `B5 (sacB Y439F)` is reported as 92900 µM (OC[C@H]1O[C@@](CO)(O[C@H]2O[C@H](CO)[C@@H](O)[C@H](O)[C@H]2O)[C@@H](O)[C@@H]1O; pH 6.6).
For `B6 (enzyme E323G)`, the Km was 800 µM (OC[C@H]1O[C@@H](O[C@H]2[C@@H](OC[C@H]3O[C@@H](O[C@H]4[C@H](O)[C@@H](O)[C@H](O[C@H]5[C@H](O)[C@@H](O)[C@@H](F)O[C@@H]5CO)O[C@@H]4CO[C@H]4OC[C@@H](O)[C@H](O)[C@H]4O[C@@H]4O[C@H](CO)[C@H](O)[C@H](O)[C@H]4O)[C@H](O)[C@@H](O)[C@@H]3O[C@@H]3O[C@H](CO[C@H]4OC[C@@H](O)[C@H](O)[C@H]4O)[C@@H](O)[C@H](O)[C@H]3O)OC[C@@H](O)[C@@H]2O)[C@H](O)[C@@H](O)[C@H]1O; pH 7.5, 30 °C, apparent).
`TGL5 (Saccharomyces cerevisiae, UniProt Q12043)` gave a Km of 29.3 µM (CCCCCCCC/C=C\CCCCCCCC(=O)SCCNC(=O)CCNC(=O)[C@H](O)C(C)(C)COP(=O)(O)OP(=O)(O)OC[C@H]1O[C@@H](n2cnc3c(N)ncnc32)[C@H](O)[C@@H]1OP(=O)(O)O; pH 7.5, 30 °C, added: LPA).
`alanine aminopeptidase (Neisseria meningitidis, UniProt Q9JYV4)` gave a Km of 50.7 µM (NC(=O)Cc1cc(=O)oc2cc(NC(=O)[C@@H](N)Cc3ccc4ccccc4c3)ccc12; pH 7.5, 37 °C).
For `B7`, the Km was 900 µM (N[C@@H](Cc1c[nH]c2ccccc12)C(=O)O; pH 7, 37 °C, not purified, added: PLP 40 µM).
With `BaiA1 (Clostridium scindens, UniProt P07914)` the Km was 9.1 µM (C[C@H](CCC(=O)SCCNC(=O)CCNC(=O)[C@H](O)C(C)(C)COP(=O)(O)OP(=O)(O)OC[C@H]1O[C@@H](n2cnc3c(N)ncnc32)[C@H](O)[C@@H]1OP(=O)(O)O)[C@H]1CC[C@H]2[C@@H]3[C@H](O)C[C@@H]4CC(=O)CC[C@]4(C)[C@H]3C[C@H](O)[C@]12C; pH 8.7, 37 °C, added: NADH).

Some of these lines once more:
With `GulLO5 (Arabidopsis thaliana, UniProt O81030)` the Km was 33800 µM (O=C1O[C@H]([C@@H](O)CO)[C@H](O)[C@@H]1O; pH 8, 25 °C, apparent, added: cytochrome c 121 µM, FAD 100 µM).
